# Measurements from different studies.
# Every numbered part comes from another study and shows a few of its results, in no order. Values joined by “and” are separate records of one study, mostly repeats; a detail may differ.
# Chain of UniProt Q96D53 (whole entry, looked up): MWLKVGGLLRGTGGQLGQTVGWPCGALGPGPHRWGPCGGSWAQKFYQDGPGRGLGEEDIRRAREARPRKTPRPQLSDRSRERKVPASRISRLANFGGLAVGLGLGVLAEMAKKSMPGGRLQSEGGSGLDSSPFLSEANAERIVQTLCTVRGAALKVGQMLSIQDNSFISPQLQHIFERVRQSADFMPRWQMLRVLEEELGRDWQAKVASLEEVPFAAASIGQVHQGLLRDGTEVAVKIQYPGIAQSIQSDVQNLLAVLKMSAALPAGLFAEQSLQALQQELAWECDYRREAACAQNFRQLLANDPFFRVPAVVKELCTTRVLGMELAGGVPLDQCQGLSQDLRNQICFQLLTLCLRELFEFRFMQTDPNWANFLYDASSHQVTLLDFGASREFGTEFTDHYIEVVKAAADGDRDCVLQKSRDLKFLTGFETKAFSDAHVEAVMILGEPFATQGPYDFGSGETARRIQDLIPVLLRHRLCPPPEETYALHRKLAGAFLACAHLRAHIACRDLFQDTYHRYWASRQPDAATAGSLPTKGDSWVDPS
# Chain of UniProt Q9H093 (whole entry, looked up): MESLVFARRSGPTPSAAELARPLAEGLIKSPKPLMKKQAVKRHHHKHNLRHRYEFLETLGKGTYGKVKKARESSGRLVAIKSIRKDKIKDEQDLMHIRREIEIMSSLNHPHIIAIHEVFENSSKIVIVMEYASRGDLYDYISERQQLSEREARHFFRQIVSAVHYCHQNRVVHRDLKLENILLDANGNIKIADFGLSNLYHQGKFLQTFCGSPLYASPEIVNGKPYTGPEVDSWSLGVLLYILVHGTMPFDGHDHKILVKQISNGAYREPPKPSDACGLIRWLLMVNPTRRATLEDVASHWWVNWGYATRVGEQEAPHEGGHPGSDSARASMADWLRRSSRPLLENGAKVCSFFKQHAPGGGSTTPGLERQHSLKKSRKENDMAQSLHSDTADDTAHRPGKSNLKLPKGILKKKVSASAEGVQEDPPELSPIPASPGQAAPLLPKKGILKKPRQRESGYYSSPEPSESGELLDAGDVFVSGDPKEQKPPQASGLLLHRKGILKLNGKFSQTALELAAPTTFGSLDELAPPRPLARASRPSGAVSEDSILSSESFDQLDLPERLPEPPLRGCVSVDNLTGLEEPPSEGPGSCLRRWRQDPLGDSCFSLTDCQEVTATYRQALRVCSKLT
# Chain of UniProt Q13163 (whole entry, looked up): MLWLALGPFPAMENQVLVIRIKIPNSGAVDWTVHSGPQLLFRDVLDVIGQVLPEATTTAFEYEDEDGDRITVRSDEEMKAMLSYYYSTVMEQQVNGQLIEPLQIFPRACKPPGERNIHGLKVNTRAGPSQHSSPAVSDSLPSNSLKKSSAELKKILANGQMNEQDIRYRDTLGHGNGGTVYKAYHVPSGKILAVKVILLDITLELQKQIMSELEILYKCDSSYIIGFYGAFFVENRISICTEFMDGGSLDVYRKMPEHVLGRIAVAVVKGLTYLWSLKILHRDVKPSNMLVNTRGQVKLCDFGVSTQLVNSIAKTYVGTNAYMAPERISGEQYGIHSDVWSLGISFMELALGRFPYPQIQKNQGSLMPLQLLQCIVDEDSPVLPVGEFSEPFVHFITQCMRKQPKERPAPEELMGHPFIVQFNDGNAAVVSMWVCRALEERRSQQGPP
# Chain of UniProt Q9BYT3 (whole entry, looked up): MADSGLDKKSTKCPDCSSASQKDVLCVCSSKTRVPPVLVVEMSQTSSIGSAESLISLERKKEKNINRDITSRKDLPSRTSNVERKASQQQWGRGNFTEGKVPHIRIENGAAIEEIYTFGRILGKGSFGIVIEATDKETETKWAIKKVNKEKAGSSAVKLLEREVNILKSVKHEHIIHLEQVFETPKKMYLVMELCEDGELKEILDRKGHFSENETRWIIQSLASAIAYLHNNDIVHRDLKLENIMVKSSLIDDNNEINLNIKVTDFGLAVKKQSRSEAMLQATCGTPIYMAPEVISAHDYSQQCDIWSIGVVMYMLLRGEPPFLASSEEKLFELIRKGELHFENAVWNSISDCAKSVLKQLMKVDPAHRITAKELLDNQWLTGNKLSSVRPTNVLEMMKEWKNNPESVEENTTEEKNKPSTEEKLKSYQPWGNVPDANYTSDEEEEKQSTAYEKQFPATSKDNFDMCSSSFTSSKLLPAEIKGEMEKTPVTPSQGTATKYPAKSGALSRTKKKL
# Chain of UniProt Q9P1W9 (whole entry, looked up): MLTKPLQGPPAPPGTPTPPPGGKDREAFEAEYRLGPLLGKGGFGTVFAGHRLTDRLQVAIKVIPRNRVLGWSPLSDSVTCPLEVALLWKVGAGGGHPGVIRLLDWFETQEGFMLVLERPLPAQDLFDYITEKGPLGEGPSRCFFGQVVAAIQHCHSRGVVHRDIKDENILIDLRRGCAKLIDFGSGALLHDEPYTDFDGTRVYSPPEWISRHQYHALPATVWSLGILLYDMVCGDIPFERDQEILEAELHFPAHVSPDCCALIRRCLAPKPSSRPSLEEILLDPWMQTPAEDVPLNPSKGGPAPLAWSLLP

# Series 1
# Target: DNA polymerase theta, ATPase domain (POLQ, Homo sapiens, UniProt O75417)
# Chain of UniProt O75417 (whole entry, unmodified, looked up): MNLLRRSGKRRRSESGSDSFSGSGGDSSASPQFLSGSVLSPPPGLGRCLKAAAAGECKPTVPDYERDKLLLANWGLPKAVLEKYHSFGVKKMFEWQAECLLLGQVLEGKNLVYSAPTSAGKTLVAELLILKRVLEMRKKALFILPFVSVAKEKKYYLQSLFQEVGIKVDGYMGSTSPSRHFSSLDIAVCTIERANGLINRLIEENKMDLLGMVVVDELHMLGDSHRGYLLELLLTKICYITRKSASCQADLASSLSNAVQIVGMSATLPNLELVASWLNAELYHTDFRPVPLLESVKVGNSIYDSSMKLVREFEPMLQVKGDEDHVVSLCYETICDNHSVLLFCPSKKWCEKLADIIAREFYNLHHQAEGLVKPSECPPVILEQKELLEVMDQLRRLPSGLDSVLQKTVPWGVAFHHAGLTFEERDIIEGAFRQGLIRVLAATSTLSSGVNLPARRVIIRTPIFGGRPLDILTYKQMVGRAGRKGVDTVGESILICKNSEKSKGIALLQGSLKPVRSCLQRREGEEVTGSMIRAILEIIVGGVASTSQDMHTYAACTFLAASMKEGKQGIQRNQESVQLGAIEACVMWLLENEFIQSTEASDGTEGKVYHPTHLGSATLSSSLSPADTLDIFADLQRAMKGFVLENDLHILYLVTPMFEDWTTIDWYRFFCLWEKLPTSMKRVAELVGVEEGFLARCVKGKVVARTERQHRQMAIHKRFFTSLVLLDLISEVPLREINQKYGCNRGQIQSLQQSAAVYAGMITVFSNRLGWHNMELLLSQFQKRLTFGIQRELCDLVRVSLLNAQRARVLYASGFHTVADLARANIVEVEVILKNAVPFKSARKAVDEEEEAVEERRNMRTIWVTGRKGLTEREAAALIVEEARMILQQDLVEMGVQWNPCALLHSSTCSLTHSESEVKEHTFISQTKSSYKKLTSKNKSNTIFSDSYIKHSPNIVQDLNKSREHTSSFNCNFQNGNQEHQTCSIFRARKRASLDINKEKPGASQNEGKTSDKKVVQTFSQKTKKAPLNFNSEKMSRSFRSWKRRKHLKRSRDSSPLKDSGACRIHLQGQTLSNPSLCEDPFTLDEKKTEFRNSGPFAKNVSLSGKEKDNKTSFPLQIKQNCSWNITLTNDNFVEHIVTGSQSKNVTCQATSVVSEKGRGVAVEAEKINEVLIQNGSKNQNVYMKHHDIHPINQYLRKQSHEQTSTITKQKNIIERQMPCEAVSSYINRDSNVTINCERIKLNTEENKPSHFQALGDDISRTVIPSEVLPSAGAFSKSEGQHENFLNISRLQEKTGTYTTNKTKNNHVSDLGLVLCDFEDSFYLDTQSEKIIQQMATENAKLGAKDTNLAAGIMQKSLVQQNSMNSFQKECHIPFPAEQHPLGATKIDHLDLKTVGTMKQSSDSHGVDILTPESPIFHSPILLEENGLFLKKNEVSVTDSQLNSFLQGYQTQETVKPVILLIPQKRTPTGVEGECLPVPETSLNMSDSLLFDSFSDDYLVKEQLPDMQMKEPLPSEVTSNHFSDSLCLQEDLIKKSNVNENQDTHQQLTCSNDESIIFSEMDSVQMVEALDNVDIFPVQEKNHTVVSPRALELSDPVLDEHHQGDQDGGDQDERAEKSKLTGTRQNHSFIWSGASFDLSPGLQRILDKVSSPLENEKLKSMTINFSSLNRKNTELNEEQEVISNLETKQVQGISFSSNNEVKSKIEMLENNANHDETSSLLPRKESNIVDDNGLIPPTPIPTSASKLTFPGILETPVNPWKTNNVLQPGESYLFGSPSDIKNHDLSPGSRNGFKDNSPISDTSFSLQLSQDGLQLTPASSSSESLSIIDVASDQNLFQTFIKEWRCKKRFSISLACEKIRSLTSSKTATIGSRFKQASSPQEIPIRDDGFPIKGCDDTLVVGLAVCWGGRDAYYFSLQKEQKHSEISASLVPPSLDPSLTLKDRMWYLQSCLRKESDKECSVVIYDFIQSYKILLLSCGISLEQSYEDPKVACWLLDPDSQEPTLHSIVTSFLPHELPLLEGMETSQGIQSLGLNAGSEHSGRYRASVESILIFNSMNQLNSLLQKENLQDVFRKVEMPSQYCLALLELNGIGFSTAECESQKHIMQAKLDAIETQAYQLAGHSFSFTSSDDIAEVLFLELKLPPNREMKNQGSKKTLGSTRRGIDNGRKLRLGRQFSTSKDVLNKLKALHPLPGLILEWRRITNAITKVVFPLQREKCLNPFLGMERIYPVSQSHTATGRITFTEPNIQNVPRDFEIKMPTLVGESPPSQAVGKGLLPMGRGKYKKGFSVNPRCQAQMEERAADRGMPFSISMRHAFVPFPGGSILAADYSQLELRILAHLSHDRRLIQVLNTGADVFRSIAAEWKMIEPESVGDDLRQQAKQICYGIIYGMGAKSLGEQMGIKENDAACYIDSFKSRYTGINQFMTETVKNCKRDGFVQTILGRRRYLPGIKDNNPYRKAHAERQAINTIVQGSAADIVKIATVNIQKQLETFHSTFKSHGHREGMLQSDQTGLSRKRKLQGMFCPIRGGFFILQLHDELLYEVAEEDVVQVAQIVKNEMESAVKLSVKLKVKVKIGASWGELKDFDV
# Observed: enzyme activity
# Action: inhibitor
# Tested at: 77 µM
# Baseline: untreated
SMILES,remaining activity
Nc1n[nH]c(N)c1N=Nc1ccc(O)cc1,103%
C[n+]1ccccc1/C=N/O,101%
Cc1nnc(C(=O)NC(C)(C)c2nc(C(=O)NCc3ccc(F)cc3)c(O)c(=O)n2C)o1,97.8%
OC[C@@H](O)[C@@H](O)[C@H](O)[C@H](O)CO,101%
c1ccc2c3c([nH]c2c1)[C@H]1[C@H]2CC[C@H]([C@@H]4CCCN[C@@H]42)N1CC3,103%
CCC(C)N(C)C(=O)c1cc2ccccc2c(-c2ccccc2Cl)n1 (stereo not shown),101%
O=C(CCCN1CCC(O)(c2cccc(C(F)(F)F)c2)CC1)c1ccc(F)cc1,103%
Cn1cc(/C=C2\C(=O)Nc3cccnc32)c2ccccc21,114% and 108% and 117%
CCC[C@H](Nc1nc(-c2ccc(NC(=O)NCC)c(OC)c2)ncc1C)c1cccnc1,92%
NC(=O)N1c2ccccc2C=Cc2ccccc21,101% and 94.2%
CC(C)NC(=N)NC(=N)Nc1ccc(Cl)cc1,105%
COC(=O)[C@@H](N)Cc1ccc(O)c(O)c1,100%
CC(=O)Nc1ncc([N+](=O)[O-])s1,99.3%
COc1ccc(NC(=O)c2ccc(-c3ccc(-c4noc(C)n4)cc3C)cc2)cc1N1CCN(C)CC1,102%
CN(C)C(=O)[C@H](O)[C@H](Cc1ccccc1)NC(=O)c1cc2cc(Cl)ccc2[nH]1,102% and 105%
Oc1ccccc1O,99.5%
COC(=O)C1=C(C)NC(C)=C(C(=O)OCC(C)C)C1c1ccccc1[N+](=O)[O-] (stereo not shown),99.8% and 103%

# Series 2
# Target: Serine/threonine-protein kinase Sgk3 (SGK3, Homo sapiens, UniProt Q96BR1)
# Observed: enzyme activity
# Action: inhibitor
# Tested at: 0.5 µM
# Baseline: control
# Residues (Q96BR1 1-496): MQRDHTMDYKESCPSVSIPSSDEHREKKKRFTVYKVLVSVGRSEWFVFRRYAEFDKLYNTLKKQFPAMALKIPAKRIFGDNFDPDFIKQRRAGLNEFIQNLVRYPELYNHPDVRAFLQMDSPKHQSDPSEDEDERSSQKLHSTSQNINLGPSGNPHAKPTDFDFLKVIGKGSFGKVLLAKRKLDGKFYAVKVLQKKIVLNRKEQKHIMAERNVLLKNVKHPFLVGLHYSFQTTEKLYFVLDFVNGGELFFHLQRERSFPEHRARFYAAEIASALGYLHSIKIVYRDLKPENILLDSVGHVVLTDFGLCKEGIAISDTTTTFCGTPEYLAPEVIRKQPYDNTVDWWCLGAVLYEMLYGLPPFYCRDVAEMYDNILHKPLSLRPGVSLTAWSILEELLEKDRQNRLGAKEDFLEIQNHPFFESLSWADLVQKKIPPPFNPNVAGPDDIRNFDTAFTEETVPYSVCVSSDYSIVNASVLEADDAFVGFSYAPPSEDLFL
Structure (SMILES),remaining activity [%]
N#CC(c1ccnc(NCCc2cccnc2)n1)c1nc2ccccc2s1 (stereo not shown),107
CCCCc1c(-c2ccc(O)cc2)[nH]c2nccnc12,95.3
CNc1cc2c(Nc3cccc(Br)c3)ncnc2cn1,96.8
CC(C)N(CCC(=O)c1ccc2ccccc2c1)Cc1ccccc1,106
NC(=O)c1ccc(-c2nc(-c3ccc4c(c3)OCCO4)c(-c3ccccn3)[nH]2)cc1,98.1
COc1cc2c(N3CCN(C(=O)Nc4ccc(OC(C)C)cc4)CC3)ncnc2cc1OCCCN1CCCCC1,102
CC(C)(C)c1nc2c3cc[nH]c(=O)c3c3cc(F)ccc3c2[nH]1,96.6
CCN(CC)CCCCN1c2ccccc2Oc2ccc(Cl)cc21,101
O=Nc1c(-c2c(O)[nH]c3ccccc23)[nH]c2ccccc12,102
O=C1NC(=O)/C(=C/c2ccc3c(c2)OC(F)(F)O3)S1,94.7
c1cc(-c2cnn3cc(-c4ccc(OCCN5CCCCC5)cc4)cnc23)ccn1,93.9
COc1cc2c(Nc3ccc(Br)cc3F)ncnc2cc1OCC1CCN(C)CC1,97.9
FC(F)(F)c1ccc(/C=C/c2nc(COc3ccc(CCCCn4ccnn4)cc3)co2)cc1,89.2
Clc1ccc(Nc2nnc(Cc3ccncc3)c3ccccc23)cc1,99.2
N#C/C(=C(/N)SC1C=CC=CC1)c1cccc(C(O)c2ccncc2)c1 (stereo not shown),102
O=c1c(-c2ccc(F)cc2)c(-c2ccncc2)[nH]n1-c1ccc(Cl)cc1,100
O=C(c1ccccc1)c1ccc(N2CCOCC2)cc1O,105
C[C@@H](N)[C@H]1CC[C@H](C(=O)Nc2ccncc2)CC1,98.4
NC(=O)c1cccc(-c2cc(Nc3ccc(OC(F)(F)F)cc3)ncn2)c1,104
CC(C)n1cnc2c(Nc3cccc(Cl)c3)nc(NCCO)nc21,97.1
O=C(O)/C=C/c1cc(Br)c(Br)c(Br)c1Br,85.7
Nc1nc(Nc2ccc(S(N)(=O)=O)cc2)nn1C(=S)Nc1c(F)cccc1F,98.4
O=C1c2ccccc2-c2nc3nnnn3nc21,90.4

# Series 3
# Structure (SMILES): O=C(NC[C@@H]1[C@H]2CN(C(=O)OCc3cc(C(F)(F)F)cc(C(F)(F)F)c3)C[C@@H]12)c1ccc2[nH]nnc2c1
# Observed: cell-free assay
# Technique: competition with immobilised ligand
# Tested at: 1 µM
target,remaining binding [%]
"Dual specificity mitogen-activated protein kinase kinase 5 (MAP2K5, Homo sapiens, UniProt Q13163)",100
"Atypical kinase COQ8B, mitochondrial (COQ8B, Homo sapiens, UniProt Q96D53)",94
"Serine/threonine-protein kinase PAK 3 (PAK3, Homo sapiens, UniProt O75914)",100
"Tyrosine-protein kinase JAK1, JH1 (JAK1, Homo sapiens, UniProt P23458)",89
"Serine/threonine-protein kinase 33 (STK33, Homo sapiens, UniProt Q9BYT3)",84
"Dual specificity mitogen-activated protein kinase kinase 3 (MAP2K3, Homo sapiens, UniProt P46734)",93
"Tyrosine-protein kinase receptor Tie-1 (TIE1, Homo sapiens, UniProt P35590)",77
"Mitogen-activated protein kinase kinase kinase 10 (MAP3K10, Homo sapiens, UniProt Q02779)",83
"Testis-specific serine/threonine-protein kinase 1 (TSSK1B, Homo sapiens, UniProt Q9BXA7)",100
"Serine/threonine-protein kinase Nek1 (NEK1, Homo sapiens, UniProt Q96PY6)",44
"Tyrosine-protein kinase ABL1, non-phosphorylated (ABL1, Homo sapiens, UniProt P00519, Q252H)",78
"Serine/threonine-protein kinase pim-2 (PIM2, Homo sapiens, UniProt Q9P1W9)",100
"Mitogen-activated protein kinase 13 (MAPK13, Homo sapiens, UniProt O15264)",100
"Serine/threonine-protein kinase RIO2 (RIOK2, Homo sapiens, UniProt Q9BVS4)",94
"Phosphatidylinositol 4,5-bisphosphate 3-kinase catalytic subunit alpha isoform (PIK3CA, Homo sapiens, UniProt P42336, C420R)",95
"Tyrosine-protein kinase JAK2, JH1 (JAK2, Homo sapiens, UniProt O60674)",100
"NUAK family SNF1-like kinase 2 (NUAK2, Homo sapiens, UniProt Q9H093)",88
"5'-AMP-activated protein kinase catalytic subunit alpha-2 (PRKAA2, Homo sapiens, UniProt P54646)",100
"Phosphorylase b kinase gamma catalytic chain, skeletal muscle/heart isoform (PHKG1, Homo sapiens, UniProt Q16816)",92
"Tyrosine-protein kinase Fyn (FYN, Homo sapiens, UniProt P06241)",85
"Mitogen-activated protein kinase 15 (MAPK15, Homo sapiens, UniProt Q8TD08)",100

# Series 4
# SMILES: CC(C)n1cnc(-c2ccc(F)cc2)c1-c1ncc(C(=O)Nc2ccc(N3CCN(C)CC3)cc2)[nH]1
# Technique: phase 2a trial
# Host: idiopathic pulmonary fibrosis patients
refers to,dose,setting,adverse event incidence [%]
appendicitis,dose not given,"grade 5, all arms pooled",0
allergic conjunctivitis,30 mg once daily,grade 5,0
weight decreased,dose not given,"grade 5, all arms pooled",0
hydroxybutyrate dehydrogenase increased,30 mg once daily,grade 5,0
weight decreased,60 mg once daily,grade 4,0
drug eruption,dose not given,"grade 1, all arms pooled",0
arthritis,60 mg once daily,grade 3,0
liver injury,dose not given,"grade 5, all arms pooled",0
drug eruption,dose not given,"grade 3, all arms pooled",0
synovitis,30 mg once daily,grade 4,0
ventricular extrasystoles,30 mg once daily,grade 2,0
hepatic enzyme abnormal,60 mg once daily,grade 3,0
appendicitis,30 mg once daily,grade 5,0
carotid intima-media thickening,30 mg once daily,grade 4,0
appendicitis,30 mg once daily,grade 2,0
proteinuria,dose not given,"grade 3, all arms pooled",0
infection,60 mg once daily,grade 3,0
ECG ST segment abnormal,60 mg once daily,grade 1,0
drug eruption,30 mg once daily,grade 4,0
weight decreased,dose not given,"grade 2, all arms pooled",0
infection,30 mg once daily,grade 5,0

# Excerpt of the above (series 1):
SMILES,remaining activity
C[n+]1ccccc1/C=N/O,101%
Cc1nnc(C(=O)NC(C)(C)c2nc(C(=O)NCc3ccc(F)cc3)c(O)c(=O)n2C)o1,97.8%
OC[C@@H](O)[C@@H](O)[C@H](O)[C@H](O)CO,101%
c1ccc2c3c([nH]c2c1)[C@H]1[C@H]2CC[C@H]([C@@H]4CCCN[C@@H]42)N1CC3,103%
